Experimental data collected from several papers.
Every numbered part comes from another study and shows a few of its results, in no order.
Chain of UniProt P10721 (whole entry, unmodified, looked up): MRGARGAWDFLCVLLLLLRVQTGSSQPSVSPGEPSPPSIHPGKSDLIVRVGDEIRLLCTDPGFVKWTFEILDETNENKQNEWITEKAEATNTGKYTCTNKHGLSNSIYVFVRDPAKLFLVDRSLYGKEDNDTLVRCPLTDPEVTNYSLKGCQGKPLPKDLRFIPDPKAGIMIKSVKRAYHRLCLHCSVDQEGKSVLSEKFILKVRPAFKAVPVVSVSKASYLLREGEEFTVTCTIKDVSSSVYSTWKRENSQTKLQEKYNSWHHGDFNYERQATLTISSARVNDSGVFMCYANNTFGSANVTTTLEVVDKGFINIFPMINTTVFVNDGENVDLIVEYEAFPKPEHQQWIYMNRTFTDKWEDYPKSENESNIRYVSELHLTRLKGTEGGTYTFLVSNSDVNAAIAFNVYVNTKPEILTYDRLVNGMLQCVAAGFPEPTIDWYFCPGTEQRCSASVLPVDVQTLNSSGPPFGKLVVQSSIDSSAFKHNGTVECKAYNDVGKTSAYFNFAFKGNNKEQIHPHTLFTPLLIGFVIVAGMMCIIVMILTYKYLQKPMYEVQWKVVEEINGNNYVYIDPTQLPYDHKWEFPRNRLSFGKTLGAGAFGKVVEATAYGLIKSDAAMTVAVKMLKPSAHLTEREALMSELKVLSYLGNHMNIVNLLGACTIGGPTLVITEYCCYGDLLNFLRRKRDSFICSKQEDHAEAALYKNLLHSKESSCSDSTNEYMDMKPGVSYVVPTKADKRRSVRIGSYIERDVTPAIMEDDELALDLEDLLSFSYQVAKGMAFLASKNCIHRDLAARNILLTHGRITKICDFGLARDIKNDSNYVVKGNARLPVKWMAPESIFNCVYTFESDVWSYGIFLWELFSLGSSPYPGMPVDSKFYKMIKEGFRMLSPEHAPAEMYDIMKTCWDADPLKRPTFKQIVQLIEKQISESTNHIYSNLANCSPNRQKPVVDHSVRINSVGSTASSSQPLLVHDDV
Chain of UniProt P04049 (whole entry, looked up): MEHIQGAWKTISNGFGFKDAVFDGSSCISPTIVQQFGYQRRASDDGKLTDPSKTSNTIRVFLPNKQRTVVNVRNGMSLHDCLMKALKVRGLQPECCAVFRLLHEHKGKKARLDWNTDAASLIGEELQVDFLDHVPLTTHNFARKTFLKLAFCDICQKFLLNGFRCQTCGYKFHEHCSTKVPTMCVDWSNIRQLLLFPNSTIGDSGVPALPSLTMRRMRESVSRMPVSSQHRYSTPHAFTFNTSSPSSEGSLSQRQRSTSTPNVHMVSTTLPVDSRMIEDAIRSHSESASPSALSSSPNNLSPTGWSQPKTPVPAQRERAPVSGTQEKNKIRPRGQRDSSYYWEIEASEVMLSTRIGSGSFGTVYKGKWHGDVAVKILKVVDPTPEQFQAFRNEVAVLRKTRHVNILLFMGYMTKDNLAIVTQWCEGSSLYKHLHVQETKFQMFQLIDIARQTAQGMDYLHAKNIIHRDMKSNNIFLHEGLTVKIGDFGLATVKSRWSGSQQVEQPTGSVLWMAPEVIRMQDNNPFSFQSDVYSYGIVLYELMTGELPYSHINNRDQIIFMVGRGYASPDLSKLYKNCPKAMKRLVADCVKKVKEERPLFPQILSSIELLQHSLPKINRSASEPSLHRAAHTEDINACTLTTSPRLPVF
Chain of UniProt P48546 (whole entry, looked up): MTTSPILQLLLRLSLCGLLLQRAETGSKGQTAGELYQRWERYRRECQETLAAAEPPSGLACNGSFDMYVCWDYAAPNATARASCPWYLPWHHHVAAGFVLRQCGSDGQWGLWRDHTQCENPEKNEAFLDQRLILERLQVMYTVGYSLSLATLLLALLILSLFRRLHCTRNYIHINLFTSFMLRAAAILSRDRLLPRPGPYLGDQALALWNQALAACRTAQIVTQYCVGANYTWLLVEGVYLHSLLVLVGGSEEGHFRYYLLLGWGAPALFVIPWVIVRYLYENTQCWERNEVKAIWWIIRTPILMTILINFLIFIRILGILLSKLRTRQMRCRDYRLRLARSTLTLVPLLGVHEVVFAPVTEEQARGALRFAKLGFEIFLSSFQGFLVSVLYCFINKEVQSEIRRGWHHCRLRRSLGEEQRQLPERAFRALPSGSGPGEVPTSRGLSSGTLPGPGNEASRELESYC
Chain of UniProt Q9H1Y3 (whole entry, looked up): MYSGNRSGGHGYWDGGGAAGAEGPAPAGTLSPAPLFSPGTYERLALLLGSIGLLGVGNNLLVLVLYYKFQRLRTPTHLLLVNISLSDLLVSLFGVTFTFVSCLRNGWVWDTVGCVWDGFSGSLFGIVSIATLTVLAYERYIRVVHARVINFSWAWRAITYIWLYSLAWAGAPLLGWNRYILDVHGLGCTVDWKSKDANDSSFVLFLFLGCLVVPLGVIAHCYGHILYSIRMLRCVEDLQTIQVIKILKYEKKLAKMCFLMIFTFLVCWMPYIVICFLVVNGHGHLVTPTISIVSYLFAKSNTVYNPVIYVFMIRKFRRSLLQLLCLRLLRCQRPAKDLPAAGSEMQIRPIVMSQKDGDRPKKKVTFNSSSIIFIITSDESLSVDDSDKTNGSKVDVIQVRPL
Chain of UniProt P32239 (whole entry, looked up): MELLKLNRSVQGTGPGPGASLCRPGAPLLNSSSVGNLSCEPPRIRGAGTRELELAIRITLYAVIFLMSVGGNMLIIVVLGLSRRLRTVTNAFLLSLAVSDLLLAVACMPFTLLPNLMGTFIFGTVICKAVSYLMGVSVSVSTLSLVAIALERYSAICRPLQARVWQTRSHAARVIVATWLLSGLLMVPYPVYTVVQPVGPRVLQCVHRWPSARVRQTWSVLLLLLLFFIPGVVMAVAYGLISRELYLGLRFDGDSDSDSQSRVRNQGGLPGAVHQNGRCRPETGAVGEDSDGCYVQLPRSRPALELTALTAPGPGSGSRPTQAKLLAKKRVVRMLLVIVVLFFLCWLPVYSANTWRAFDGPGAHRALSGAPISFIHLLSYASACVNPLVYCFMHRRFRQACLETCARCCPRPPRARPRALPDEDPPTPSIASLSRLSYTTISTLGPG
Chain of UniProt P21728 (whole entry, looked up): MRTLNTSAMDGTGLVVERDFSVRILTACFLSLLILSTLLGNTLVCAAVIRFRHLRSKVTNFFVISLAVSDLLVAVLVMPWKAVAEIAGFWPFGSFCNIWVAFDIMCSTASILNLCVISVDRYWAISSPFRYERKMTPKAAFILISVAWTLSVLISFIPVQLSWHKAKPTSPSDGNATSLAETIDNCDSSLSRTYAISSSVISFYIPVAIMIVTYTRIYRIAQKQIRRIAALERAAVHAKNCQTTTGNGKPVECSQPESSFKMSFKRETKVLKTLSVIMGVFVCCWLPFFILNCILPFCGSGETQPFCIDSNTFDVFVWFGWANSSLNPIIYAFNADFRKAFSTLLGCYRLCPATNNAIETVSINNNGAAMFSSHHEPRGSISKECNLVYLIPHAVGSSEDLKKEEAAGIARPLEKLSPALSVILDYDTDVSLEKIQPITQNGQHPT
Chain of UniProt Q9NRH2 (whole entry, looked up): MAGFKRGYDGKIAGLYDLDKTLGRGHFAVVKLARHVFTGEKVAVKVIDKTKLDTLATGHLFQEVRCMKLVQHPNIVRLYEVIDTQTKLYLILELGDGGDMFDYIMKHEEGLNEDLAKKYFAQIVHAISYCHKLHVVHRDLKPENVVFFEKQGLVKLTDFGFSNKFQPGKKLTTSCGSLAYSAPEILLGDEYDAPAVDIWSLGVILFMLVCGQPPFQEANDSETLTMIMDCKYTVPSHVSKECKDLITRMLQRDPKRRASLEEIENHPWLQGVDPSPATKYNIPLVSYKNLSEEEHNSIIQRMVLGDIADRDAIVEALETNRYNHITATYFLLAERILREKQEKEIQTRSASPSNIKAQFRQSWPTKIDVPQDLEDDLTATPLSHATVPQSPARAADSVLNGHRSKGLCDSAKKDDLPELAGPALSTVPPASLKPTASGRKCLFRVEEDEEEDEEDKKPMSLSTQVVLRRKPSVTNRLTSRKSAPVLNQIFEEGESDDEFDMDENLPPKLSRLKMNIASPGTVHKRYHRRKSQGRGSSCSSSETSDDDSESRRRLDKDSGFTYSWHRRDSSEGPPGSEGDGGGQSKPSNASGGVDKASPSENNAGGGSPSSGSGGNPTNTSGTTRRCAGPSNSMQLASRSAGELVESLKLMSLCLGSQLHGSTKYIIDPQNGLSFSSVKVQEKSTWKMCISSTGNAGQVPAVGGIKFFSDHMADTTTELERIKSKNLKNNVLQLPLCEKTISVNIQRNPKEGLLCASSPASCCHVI
Chain of UniProt Q96G91 (whole entry, looked up): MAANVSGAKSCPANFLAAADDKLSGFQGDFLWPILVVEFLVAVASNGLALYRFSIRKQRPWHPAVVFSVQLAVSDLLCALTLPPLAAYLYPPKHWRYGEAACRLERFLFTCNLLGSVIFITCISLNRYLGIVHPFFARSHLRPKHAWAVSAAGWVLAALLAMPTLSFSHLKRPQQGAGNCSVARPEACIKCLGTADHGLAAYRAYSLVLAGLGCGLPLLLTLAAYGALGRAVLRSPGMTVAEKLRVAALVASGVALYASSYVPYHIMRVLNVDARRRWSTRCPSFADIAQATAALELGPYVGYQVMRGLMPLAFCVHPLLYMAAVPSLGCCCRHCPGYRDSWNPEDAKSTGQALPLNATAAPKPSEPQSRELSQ

Set 1
Target: Aurora kinase A (AURKA, Homo sapiens, UniProt O14965)
Chain of UniProt O14965 (whole entry, looked up): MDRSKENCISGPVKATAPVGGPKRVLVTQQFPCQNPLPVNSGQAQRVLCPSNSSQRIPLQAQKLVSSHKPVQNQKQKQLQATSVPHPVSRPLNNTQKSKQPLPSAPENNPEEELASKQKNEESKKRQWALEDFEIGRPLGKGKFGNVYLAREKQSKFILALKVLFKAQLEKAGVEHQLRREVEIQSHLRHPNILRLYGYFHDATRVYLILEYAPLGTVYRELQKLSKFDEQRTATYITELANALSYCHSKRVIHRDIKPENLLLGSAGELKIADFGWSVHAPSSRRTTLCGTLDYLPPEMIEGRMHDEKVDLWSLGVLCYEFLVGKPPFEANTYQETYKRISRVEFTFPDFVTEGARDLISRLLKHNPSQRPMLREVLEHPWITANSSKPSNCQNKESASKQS
Observed: enzyme activity
Mode: inhibitor
Concentration: 0.5 µM
Baseline: control
Quantity: remaining activity
O=C1NC(=O)/C(=C/c2ccc3c(c2)OC(F)(F)O3)S1: 92.4%
O=C1Nc2ccccc2/C1=C\c1c(Cl)[nH]c2ccccc12: 108%
O=C1Cc2c([nH]c3ccc(Br)cc23)-c2ccccc2N1: 99.7%
c1ccc2c(-c3ccncc3)c[nH]c2c1: 78%
CN1CCN(c2ccc3nc(-c4c(N)c5c(F)cccc5[nH]c4=O)[nH]c3c2)CC1: 60.6%
O=C(c1ccccc1)c1ccc(N2CCOCC2)cc1O: 108%
O=c1c(-c2ccc(F)cc2)c(-c2ccncc2)[nH]n1-c1ccc(Cl)cc1: 94%
N#Cc1cnc2cnc(NCc3cccnc3)cc2c1Nc1ccc(F)c(Cl)c1: 98.1%
Clc1ccc(Nc2nnc(Cc3ccncc3)c3ccccc23)cc1: 79%
O=C1c2ccccc2-c2nc3nnnn3nc21: 71.4%
c1ccc(-c2n[nH]c3c2oc2ccccc23)cc1: 103%
Nc1nc(Nc2ccc(S(N)(=O)=O)cc2)nn1C(=S)Nc1c(F)cccc1F: 1.44%
CC(C)(C)c1nc2c3cc[nH]c(=O)c3c3cc(F)ccc3c2[nH]1: 22.3%
N#C/C(=C(/N)SC1C=CC=CC1)c1cccc(C(O)c2ccncc2)c1 (centres unmarked): 103%
CNc1cc2c(Nc3cccc(Br)c3)ncnc2cn1: 85.1%
O=C(O)/C=C/c1cc(Br)c(Br)c(Br)c1Br: 77.2%
NC(=O)c1ccc(-c2nc(-c3ccc4c(c3)OCCO4)c(-c3ccccn3)[nH]2)cc1: 105%
O=Nc1c(-c2c(O)[nH]c3cc(Br)ccc23)[nH]c2ccccc12: 17.1%
c1cc(-c2cnn3cc(-c4ccc(OCCN5CCCCC5)cc4)cnc23)ccn1: 74.8%
CN(C)S(=O)(=O)c1ccc2c(c1)/C(=C/c1cc3c([nH]1)CCCC3)C(=O)N2: 16.1%
O=C1NC(=O)c2c1c1c3ccccc3[nH]c1c1[nH]c3cc(Br)ccc3c21: 60.7%
CCCNC(=O)Nc1ccc(Oc2ncnc3cc(OC)c(OC)cc23)cc1Cl: 89.2%
FC(F)(F)c1ccc(/C=C/c2nc(COc3ccc(CCCCn4ccnn4)cc3)co2)cc1: 111%
O=C1Nc2ccc(Br)cc2/C1=C/c1cc2c([nH]1)CCCC2: 87.5%
Oc1cccc(-c2nc(N3CCOCC3)c3oc4ncccc4c3n2)c1: 91.9%

Set 2
Host: human
Medium: microsomes or S9
Concentration: 2 µM
Time: 0.5 h
Quantity: remaining compound
CC1(C)CC(=O)c2c(O)cc(OCC(=O)NCC3CCC(C(=O)O)CC3)cc2O1 (centres unmarked): > 100%
CC1=CC(C)(C)Oc2cc(C)c(C(=O)N=C(N)N)cc21: 69.8%
C[C@@H]1CN(c2ccncc2F)C[C@@]1(O)C1CCC1: 19.9%
CC(C)(C)c1ccc(S(=O)(=O)n2ccnc2)cc1: > 99%
CCC(CO)Nc1ncc2cc3ccccc3nc2c1C#N (centres unmarked): 42.9%
CCc1nc(-n2nc(C)cc2C)c2cc(C)sc2n1: 69.1%
CCC1(N2CCOCC2)CCN(C(=O)c2c[nH]c(=O)cc2OC)CC1: 80.8%
Cc1ccc2nc3c(cc(C(=O)N4COCC4(C)C)n3Cc3ccccc3)c(=O)n2c1: 55.8%
COc1cc(=O)[nH]cc1C(=O)N1CCOCC1c1ccc(F)cc1 (centres unmarked): 29.6%
CCOc1cc(=O)n2c(c1C(=O)NCCCN1CCCc3ccccc31)CCCCC2: 0.17%
CN(Cc1ccccc1)C(=O)c1c(OCC2CC2)cc(=O)n2c1CCOCC2: 99.3%

Set 3
SMILES: Cc1cc(NC(=O)c2cccc(S(F)(F)(F)(F)F)c2)cc(-n2ccn3nc(-c4cccnc4)cc23)c1
Observed: cell-free assay
Method: competition with immobilised ligand
Concentration: 1 µM
Quantity: remaining binding
RAF proto-oncogene serine/threonine-protein kinase (RAF1, Homo sapiens, UniProt P04049): 29.4%
Tyrosine-protein kinase ABL1, phosphorylated (ABL1, Homo sapiens, UniProt P00519, M351T): 70.3%
Homeodomain-interacting protein kinase 1 (HIPK1, Homo sapiens, UniProt Q86Z02): 49.1%
Mast/stem cell growth factor receptor Kit (KIT, Homo sapiens, UniProt P10721, V559D/V654A): 100%
SNF-related serine/threonine-protein kinase (SNRK, Homo sapiens, UniProt Q9NRH2): 100%
Mast/stem cell growth factor receptor Kit (KIT, Homo sapiens, UniProt P10721, D816V): 100%
Fibroblast growth factor receptor 2 (FGFR2, Homo sapiens, UniProt P21802): 81.7%
Ribosomal protein S6 kinase alpha-4, C-terminal kinase domain (RPS6KA4, Homo sapiens, UniProt O75676): 100%
Calcium/calmodulin-dependent protein kinase type II subunit alpha (CAMK2A, Homo sapiens, UniProt Q9UQM7): 100%
Serine/threonine-protein kinase 4 (STK4, Homo sapiens, UniProt Q13043): 100%
Ribosomal protein S6 kinase alpha-2, C-terminal kinase domain (RPS6KA2, Homo sapiens, UniProt Q15349): 100%
Serine/threonine-protein kinase DCLK3 (DCLK3, Homo sapiens, UniProt Q9C098): 100%

Set 4
SMILES: CCN(c1nc(N)c(C(=O)N=C(N)N)nc1Cl)C(C)C
Observed: β-arrestin recruitment
Mode: agonist
Method: PRESTO-Tango
Concentration: 10 µM
Baseline: untreated
Quantity: fold over basal
Opsin-3 (OPN3, Homo sapiens, UniProt Q9H1Y3): 1.09
Gastrin/cholecystokinin type B receptor (CCKBR, Homo sapiens, UniProt P32239): 1.18
Gastric inhibitory polypeptide receptor (GIPR, Homo sapiens, UniProt P48546): 0.59 fold
C-C chemokine receptor type 7 (CCR7, Homo sapiens, UniProt P32248): 1.08
D(1A) dopamine receptor (DRD1, Homo sapiens, UniProt P21728): 0.95
P2Y purinoceptor 11 (P2RY11, Homo sapiens, UniProt Q96G91): 1.16
C-C chemokine receptor type 3 (CCR3, Homo sapiens, UniProt P51677): 1.07
Relaxin receptor 2 (RXFP2, Homo sapiens, UniProt Q8WXD0): 0.8
Follicle-stimulating hormone receptor (FSHR, Homo sapiens, UniProt P23945): 0.64 fold
5-hydroxytryptamine receptor 2A (HTR2A, Homo sapiens, UniProt P28223): 0.34
Muscarinic acetylcholine receptor M4 (CHRM4, Homo sapiens, UniProt P08173): 0.73
